Published values gathered from unrelated publications.
Each numbered part is a random draw from the data of one study; scales do not carry over between parts. Changes are numbered by the printed parent chain.

Study 1 — technique: protein-binding microarray; form: double-stranded DNA, one strand shown; medium: in vitro; concentration: 2540 nM top; setting: 60-bp whole probe; with: salmon DNA 0.4 mg/ml; relative to: random background probes; reading: higher = stronger binding; all sequences stand within: GCCTAGCAC … GTCTTGATTCGCTTGACGCTGCTG
Target: Interferon regulatory factor 3, full length, phosphomimetic (IRF3, Homo sapiens, UniProt Q14653, residues 1-427, S386D/S396D/S398D/S402D/T404D/S405D)
UniProt Q14653, sequence (whole entry, unmodified, looked up): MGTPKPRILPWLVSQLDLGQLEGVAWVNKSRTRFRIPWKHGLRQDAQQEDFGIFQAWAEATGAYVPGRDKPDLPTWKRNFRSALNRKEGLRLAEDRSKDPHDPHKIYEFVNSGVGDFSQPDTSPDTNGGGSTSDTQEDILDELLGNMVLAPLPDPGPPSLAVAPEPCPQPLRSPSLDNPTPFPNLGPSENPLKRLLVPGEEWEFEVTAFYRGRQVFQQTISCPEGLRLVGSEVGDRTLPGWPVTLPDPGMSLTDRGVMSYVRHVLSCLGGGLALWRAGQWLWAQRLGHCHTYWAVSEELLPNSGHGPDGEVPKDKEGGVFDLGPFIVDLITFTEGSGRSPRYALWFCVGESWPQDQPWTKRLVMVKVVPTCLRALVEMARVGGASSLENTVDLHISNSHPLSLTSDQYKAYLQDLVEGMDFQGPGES
Oligonucleotide	fitted relative affinity [z-score]
TTAGGGATCGACTTTCGGTTAGTGCTA	1.24
CTGGCTGGGGTGGTGGCAGTGTGCTAG	-1.49
GACGGACCGGACACTGGGGACGTGCTA	-0.245
TTAGGTATCGACTTTTGGTTAGTGCTA	0.428
TTAGGATTCGGGTATCGGTTAGTGCTA	1.4
GTGCCCGCTGCTTCCGGTGCGTGCTAG	-0.339
TAAGGTATCGGGTATCGGTTAGTGCTA	1.86
TTAGGTTTCCTTTTCCTTTAGTGCTAG	11.9
TTAGGTATCGGGTTTCGGTTCGTGCTA	4.71
GACGGTATCGATCTCGGGACGTGCTAG	3.29
GACGGTCTCGGTCCCGGGACGTGCTAG	0.322
TCACATATAATTTTGTCATCGTGCTAG	0.383
TTAGAACTGGGGACTGGATGAGTGCTA	-0.788
TCATTTTTTAGCTTCTCACTGTGCTAG	1.09
TTAGGTTTCGGGTGTCGGTTAGTGCTA	3.73
TCAAATTTTGCTTCTAGACTGTGCTAG	0.482
TTAGGTTTCCGTCTCGGTTAGTGCTAG	7.2
TTAGGTTTCGGTTTTGGTTAGTGCTAG	10.7
TCATTCATGAAATTTTAAACTGTGCTA	0.481

Study 2 — target: CCNF, cyclin fold, Cln2 fusion (human); technique: yeast growth competition, sequencing; medium: yeast; setting: strong parent motif; relative to: not given; reading: higher = stronger binding
Starting sequence: CDC25A docking peptide (human); PPHRRRLLFACSP; partner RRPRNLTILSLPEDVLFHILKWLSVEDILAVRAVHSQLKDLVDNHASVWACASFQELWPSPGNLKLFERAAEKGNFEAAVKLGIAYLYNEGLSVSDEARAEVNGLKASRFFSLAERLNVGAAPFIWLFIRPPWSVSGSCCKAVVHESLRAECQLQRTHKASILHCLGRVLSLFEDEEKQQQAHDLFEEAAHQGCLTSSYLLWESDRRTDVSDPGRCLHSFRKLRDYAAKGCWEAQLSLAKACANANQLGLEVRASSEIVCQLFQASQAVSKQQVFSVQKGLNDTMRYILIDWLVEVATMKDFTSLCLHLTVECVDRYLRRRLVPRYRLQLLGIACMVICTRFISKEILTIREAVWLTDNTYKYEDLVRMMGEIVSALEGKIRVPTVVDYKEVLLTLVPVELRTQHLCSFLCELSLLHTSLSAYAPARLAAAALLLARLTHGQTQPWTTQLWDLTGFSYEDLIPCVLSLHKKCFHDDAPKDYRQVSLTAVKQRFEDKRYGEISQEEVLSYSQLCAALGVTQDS
Substitution	normalised enrichment score
R4W	2.67
A10G	7.7
P13E	8.29
A10N	8.18
P2L	6.13
C11N	8.05
P1E	7
P1V	6.92
R4F	3.15
P2I	6.63
R5A R6A L7A L8A	-0.0552
L7F	2.16
P2K	7.13
C11R	6.69
A10Q	8.21
L7V	1.62
P13M	7.62
P1K	6.89
L7D	0.573
L8F	7.29
A10P	8.14
F9M	3.97

Study 3 — technique: RNA Bind-n-Seq; form: RNA; medium: in vitro; concentration: 1 µM; setting: whole 134-nt RNA, ends assumed; with: 150 mM KCl; relative to: input library; reading: higher = stronger binding
Target: Ras GTPase-activating protein-binding protein 1, RRM domain (G3BP1, Homo sapiens, UniProt Q13283)
UniProt Q13283, sequence (whole entry, looked up): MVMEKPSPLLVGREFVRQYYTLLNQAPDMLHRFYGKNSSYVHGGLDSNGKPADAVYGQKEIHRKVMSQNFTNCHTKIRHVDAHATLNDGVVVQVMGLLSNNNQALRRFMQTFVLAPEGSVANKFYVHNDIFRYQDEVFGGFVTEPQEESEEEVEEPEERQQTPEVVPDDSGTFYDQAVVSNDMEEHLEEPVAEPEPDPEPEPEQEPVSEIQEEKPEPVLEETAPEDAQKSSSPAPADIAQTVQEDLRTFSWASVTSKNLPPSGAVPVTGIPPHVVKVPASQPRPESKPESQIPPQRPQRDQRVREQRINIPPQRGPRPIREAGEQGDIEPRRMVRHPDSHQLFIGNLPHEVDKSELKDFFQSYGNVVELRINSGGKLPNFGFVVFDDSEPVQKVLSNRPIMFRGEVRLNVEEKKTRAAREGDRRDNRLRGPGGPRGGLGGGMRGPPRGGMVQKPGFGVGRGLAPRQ
All sequences stand within: GGGAGUUCUACAGUCCGACGAUC … UGGAAUUCUCGGGUGUCAAGG
Oligonucleotide	log2 enrichment
GUCCUGUGCUACACAUCGUAUGUACCGAAUCGGGGUUUUUGGUUUUUGGGGUUUUUGGAAAGUAUUAUGUUACGCCGUUCGGAUCUGCAC	-0.23
AAGUCCUGUGCUACACAUCGUAUGUACCGAAUCGGGGUGGGGAAAAAGGGGUGGGGAAAGUAUUAUGUUACGCCGUUCGGAUCUGCACUU	0.808
UCAAGUCCUGUGCUACACAUCGUAUGUACCGAAUCGGUGGUUUGGUUUUUUUGGAAAGUAUUAUGUUACGCCGUUCGGAUCUGCACUUCC	-0.295
UCCUGUGCUACACAUCGUAUGUACCGAAUCGGCCCCCGGGGCCCCCGGGGCCCCCGGGGAAAGUAUUAUGUUACGCCGUUCGGAUCUGCA	-0.693
UCCUGUGCUACACAUCGUAUGUACCGAAUCGGGGUUUUUUGGUUUUUUGGGUUUUUUGGGAAAGUAUUAUGUUACGCCGUUCGGAUCUGC	-0.168
CUCAAGUCCUGUGCUACACAUCGUAUGUACCGAAUCGGGGAGGGGAGGGAGGGAAAGUAUUAUGUUACGCCGUUCGGAUCUGCACUUCCA	0.734
UGGCCCUGGUGGCAUGCGGGGAGGUAGAGGUGGCCUCAUGGAUCGUGGUGGUCCCGGUGGAAUGUUCAGAGGUGGCCGUGGUGGAGACAG	0.975
AAGUCCUGUGCUACACAUCGUAUGUACCGAAUCGGGAAAAGGAAAAGGAAAAGGGGAAAGUAUUAUGUUACGCCGUUCGGAUCUGCACUU	-0.0681
GCAGGAAGUAAAAACAAAUGGAAAUGCUUCGGAUAGUGGCAGGGGUGGGGGUUGCUAAGGAAAGCGUGGGAUGGGAGUGGGUAAAGAGUU	0.961

Study 4 — technique: protein binding microarray; form: double-stranded DNA, one strand shown; medium: in vitro; concentration: not given; relative to: not given; reading: higher = stronger binding
Target: Histone acetyltransferase KAT6A, winged helix 2, GST fusion (KAT6A, Homo sapiens, UniProt Q92794, residues 85-181)
Setting: 8-mer, flanks averaged, mean of 2 arrays, mostly near background
Construct (chain): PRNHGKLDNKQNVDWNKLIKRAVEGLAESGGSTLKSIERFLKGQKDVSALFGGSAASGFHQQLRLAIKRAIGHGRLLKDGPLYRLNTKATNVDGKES
Oligonucleotide	E-score
AAAACCTG	-0.14
ATGTTATC	-0.0967
CCCAGTAG	-0.0873
CCAGCGGG	0.298
AACTGCAG	0.0495
CGGATGGA	0.148
CTCGGAGA	0.0998
AGCTGGGC	0.0437
ATTCTGAG	-0.0846
CCAAGGAG	-0.023
AGTGCATC	0.0071
GGGCTCCA	-0.0498
GCGCGCCA	0.248
TACGTACA	-0.168
CCCTAACC	-0.133
CTACTGGC	-0.129
GGCCTGCA	0.013
AATCGAGC	-0.0319

Some of these lines once more (study 4):
Oligonucleotide	E-score
AATCGAGC	-0.0319
CTCGGAGA	0.0998
GGGCTCCA	-0.0498
CTACTGGC	-0.129
AACTGCAG	0.0495
AAAACCTG	-0.14
CCAAGGAG	-0.023
